{"data": "Measured values pooled from the literature", "ESR1": "Estrogen receptor (ESR1, Homo sapiens, UniProt P03372)", "note": "Values joined by “and” are separate records of one study, mostly repeats; a detail may differ. Numbers after ± are the reported error."}
{"SMILES": "CC1(C)C(=S)Nc2ccccc21", "target": "CA2 (Homo sapiens, UniProt P00918)", "assay": "inhibitor", "IC50": "> 200000 nM"}
{"SMILES": "CCc1ccc(-c2nc(Nc3nc4ccccc4o3)ncc2C#N)cc1", "target": "Grm5 (Rattus norvegicus, UniProt P31424)", "assay": "calcium mobilization, negative allosteric modulator", "setting": "added: glutamate EC80", "IC50": "1530 ± 358 nM"}
{"SMILES": "O=C(O)CNC(=O)c1cc(C(=O)O)cc([C@H]2CCN[C@@H]2C(=O)O)c1", "target": "Glutamate receptor ionotropic, NMDA 2A, with GluN1 (Grin2a, Rattus norvegicus, UniProt Q00959)", "assay": "ion current, antagonist, two-electrode voltage clamp", "system": "Xenopus oocytes", "setting": "GluN1/GluN2A, added: glycine 100 µM and glutamate 1 µM", "IC50": "1320 ± 50 nM"}
{"SMILES": "CCc1ccc(SCC(=O)Nc2ccc3nc(SCC(=O)NC4CC4)sc3c2)cc1", "target": "ESR1", "assay": "reporter gene, antagonist", "system": "HEC-1 transfected ERα luciferase reporter", "IC50": "20000 to 50000 nM"}
{"SMILES": "O=C(Nc1ccccc1OS(=O)(=O)c1ccc(F)cc1)c1cnccn1", "target": "P2X purinoceptor 7 (P2RX7, Homo sapiens, UniProt Q99572)", "assay": "calcium mobilisation, antagonist", "system": "MCF7 transfected with target", "setting": "added: Bz-ATP 100 µM", "IC50": "1180 nM and 1750 nM"}
{"SMILES": "COc1cc(C(=O)N2CCC(N3CCN(C)CC3)CC2)ccc1Nc1ncc2c(n1)N(C1CCC1)c1ccccc1C(=O)N2C", "target": "LRRK2 (Homo sapiens, UniProt Q5S007)", "assay": "kinase activity, Adapta", "IC50": "21 ± 1 nM"}
{"SMILES": "OC[C@H]1[C@@H](O)[C@H](O)[C@@H](O)CN1CCCCCOCCc1ccsc1", "target": "Ugcg (Mus musculus, UniProt O88693)", "assay": "inhibitor, C6-NBD-ceramide in situ", "system": "RAW264.7", "IC50": "120 nM"}
{"SMILES": "O=C(Nc1ccc(-c2nc3ccc(NC(=O)C4CCCC4)cc3s2)cc1)C1CCCC1", "target": "Moesin, with CD44 (Homo sapiens, UniProt P26038)", "assay": "MSN-CD44 interaction, inhibitor, TR-FRET", "setting": "added: CD44", "IC50": "> 100000 nM"}
{"SMILES": "Nc1c(Cl)ccc2cccnc12", "target": "Methionine aminopeptidase 2 (Homo sapiens, UniProt P50579)", "assay": "enzyme activity, inhibitor, coupled", "setting": "added: Met-Pro-pNA substrate, Mn2+ 10 µM", "IC50": "> 15000 nM"}
{"SMILES": "CC(C)=CCC/C(C)=C/CC/C(C)=C/CC/C(C)=C/CC1=C(C)C(=O)c2ccccc2C1=O", "target": "TGM2 (Homo sapiens, UniProt P21980)", "assay": "enzyme activity, inhibitor, biotin-pentylamine incorporation", "setting": "without DTT", "IC50": "3000 ± 2800 nM"}
{"SMILES": "NS(=O)(=O)c1ccccc1Nc1nc(-c2ccc(Cl)cc2)c2ccccc2n1", "target": "Bromodomain-containing protein 4, BD2 (BRD4, Homo sapiens, UniProt O60885)", "assay": "binding, HTRF", "IC50": "1850 ± 268 nM"}
{"SMILES": "O=[N+]([O-])c1cccc(/C=C/c2c[nH]c3ccc(F)cc23)c1", "target": "Amyloid-beta precursor protein, amyloid-beta peptide (APP, Homo sapiens, UniProt P05067)", "assay": "Aβ42 oligomerisation, ELISA", "IC50": "7000 nM"}
{"SMILES": "CSc1cc(NC(=O)c2ccccn2)ccc1Cl", "target": "GRM1 (Homo sapiens, UniProt Q13255)", "assay": "antagonist", "IC50": "> 30000 nM"}
{"SMILES": "CCOC(=O)C1=C(C)NC2=C(C(=O)CC(C)(C)C2)C1c1ccc(OCC(=O)NN=Cc2cccc(C=O)c2)cc1OCC(=O)NN=Cc1cccc(C=O)c1 (stereo not shown)", "target": "MAL32 (Saccharomyces cerevisiae, UniProt P38158)", "assay": "inhibitor", "setting": "pH 6.8, added: p-nitrophenyl α-D-glucopyranoside", "IC50": "6700 ± 380 nM"}
{"SMILES": "NC(=O)c1cn(-c2ccc(F)cc2)c2ccc(CN3CCN(CC(F)(F)F)CC3)cc2c1=O", "target": "Grm2 (Rattus norvegicus, UniProt P31421)", "assay": "calcium mobilization, negative allosteric modulator", "IC50": "612 nM"}
{"SMILES": "COC(=O)[C@@H]1C(c2nc3cncnc3[nH]2)=Cc2cc3c(cc2[C@H]1c1cc(OC)c(OC)c(OC)c1)OCO3", "target": "Tubulin alpha/beta heterodimer (Leishmania infantum, UniProt A0A381MCS3+A4HTR0)", "assay": "tubulin polymerization, inhibitor", "setting": "37 °C, added: tubulin 1.2 mg/mL", "IC50": "> 20000 nM"}
{"SMILES": "O=C(CCCn1c(=S)[nH]c2ccccc2c1=O)N1CCN(c2cccc(Cl)c2)CC1", "target": "ESR1", "assay": "reporter gene, coactivator binding inhibitor, luciferase reporter", "system": "HEC-1 cells transfected with ERα", "setting": "partial inhibition, added: estradiol 1 nM", "IC50": "14800 nM"}
{"SMILES": "COc1ccc2[nH]cc(/C=C/c3c[nH]c4ccccc34)c2c1", "target": "IDO1 (Homo sapiens, UniProt P14902)", "assay": "enzyme activity, inhibitor", "IC50": "5500 nM"}
{"SMILES": "Cc1cnccc1-c1ccc(C2(c3ccc(Cl)cc3)CCNCC2)cc1", "target": "LATS1 (Homo sapiens, UniProt O95835)", "assay": "kinase activity, inhibitor, radiometric HotSpot", "setting": "added: ATP 10 µM", "IC50": "843 nM"}
{"note": "For quick reference, copied from above:"}
{"SMILES": "CC(C)=CCC/C(C)=C/CC/C(C)=C/CC/C(C)=C/CC1=C(C)C(=O)c2ccccc2C1=O", "target": "TGM2 (Homo sapiens, UniProt P21980)", "assay": "enzyme activity, inhibitor, biotin-pentylamine incorporation", "setting": "without DTT", "IC50": "3000 ± 2800 nM"}
{"SMILES": "OC[C@H]1[C@@H](O)[C@H](O)[C@@H](O)CN1CCCCCOCCc1ccsc1", "target": "Ugcg (Mus musculus, UniProt O88693)", "assay": "inhibitor, C6-NBD-ceramide in situ", "system": "RAW264.7", "IC50": "120 nM"}
